{"data": "Measurements from different studies", "note": "Each numbered part is a random draw from the data of one study; scales do not carry over between parts."}
{"data": "Study 1", "target": "Protein C-ets-1 (ETS1, Homo sapiens, UniProt P14921, residues 1-441, full length assumed)", "method": "protein-binding microarray", "molecule type": "double-stranded DNA, one strand shown", "matrix": "in vitro", "tested at": "not given", "setting": "k-mer, scored over probes, only values ≥0.25", "reading": "higher = stronger binding", "UniProt P14921, sequence (whole entry, looked up)": "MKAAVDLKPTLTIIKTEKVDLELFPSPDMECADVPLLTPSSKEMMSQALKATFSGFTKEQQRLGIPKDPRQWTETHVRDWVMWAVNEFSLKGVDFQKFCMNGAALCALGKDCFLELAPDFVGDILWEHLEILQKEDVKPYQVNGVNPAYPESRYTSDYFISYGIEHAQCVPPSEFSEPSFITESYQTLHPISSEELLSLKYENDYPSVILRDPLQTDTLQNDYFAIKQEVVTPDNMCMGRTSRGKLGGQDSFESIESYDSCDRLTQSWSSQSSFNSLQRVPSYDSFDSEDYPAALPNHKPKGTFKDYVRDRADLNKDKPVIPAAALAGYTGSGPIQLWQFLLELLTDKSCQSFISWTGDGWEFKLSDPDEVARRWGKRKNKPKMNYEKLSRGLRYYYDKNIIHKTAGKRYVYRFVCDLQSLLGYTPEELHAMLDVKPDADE"}
{"Sequence": "AGGAAGGC", "E-score": 0.342}
{"Sequence": "CGGAACTA", "E-score": 0.401}
{"Sequence": "GAGGCGGA", "E-score": 0.333}
{"Sequence": "CGGACGAC", "E-score": 0.31}
{"Sequence": "CGATTTCC", "E-score": 0.405}
{"Sequence": "GGAACTGA", "E-score": 0.339}
{"Sequence": "ATTTCCTA", "E-score": 0.411}
{"Sequence": "AGTCGGAA", "E-score": 0.318}
{"Sequence": "CATCCGCA", "E-score": 0.442}
{"Sequence": "TACTGGAA", "E-score": 0.273}
{"Sequence": "ATCCGGTC", "E-score": 0.481}
{"Sequence": "ATACCGGA", "E-score": 0.443}
{"Sequence": "AGGAAGAA", "E-score": 0.341}
{"Sequence": "AAAACCGG", "E-score": 0.282}
{"Sequence": "AGCTTCCT", "E-score": 0.434}
{"Sequence": "CGGAAAGA", "E-score": 0.401}
{"Sequence": "CGGCCGGA", "E-score": 0.418}
{"Sequence": "CGGATCCC", "E-score": 0.322}
{"Sequence": "ACCTCCGG", "E-score": 0.43}
{"data": "Study 2", "target": "Histone acetyltransferase KAT6A, both winged helices, GST fusion (KAT6A, Homo sapiens, UniProt Q92794, residues 1-181)", "method": "protein binding microarray", "molecule type": "double-stranded DNA, one strand shown", "matrix": "in vitro", "tested at": "not given", "setting": "8-mer, flanks averaged, mean of 2 arrays, mostly near background", "reference": "not given", "reading": "higher = stronger binding", "Residues (chain)": "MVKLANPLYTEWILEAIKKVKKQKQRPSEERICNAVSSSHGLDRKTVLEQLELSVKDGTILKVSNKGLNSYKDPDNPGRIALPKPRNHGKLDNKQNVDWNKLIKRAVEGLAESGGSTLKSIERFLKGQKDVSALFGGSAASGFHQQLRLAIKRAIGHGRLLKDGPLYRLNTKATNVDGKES"}
{"Sequence": "ACTTGTGG", "E-score": -0.141}
{"Sequence": "CTATAGTC", "E-score": -0.0917}
{"Sequence": "CCCATCTC", "E-score": -0.163}
{"Sequence": "ATTTATTA", "E-score": -0.0386}
{"Sequence": "GGGTTCTA", "E-score": -0.14}
{"Sequence": "ACCTACTG", "E-score": -0.174}
{"Sequence": "ACTTATGC", "E-score": -0.12}
{"Sequence": "AAGGAGGT", "E-score": -0.213}
{"Sequence": "AACTTTCA", "E-score": -0.107}
{"Sequence": "CAGTTGAG", "E-score": -0.224}
{"Sequence": "GAGCCTAA", "E-score": -0.253}
{"Sequence": "CAGTTAAC", "E-score": 0.22}
{"Sequence": "AATATACG", "E-score": 0.0309}
{"Sequence": "GGCTCTAA", "E-score": -0.104}
{"Sequence": "ATCCTCAC", "E-score": -0.13}
{"Sequence": "ATTTACAA", "E-score": -0.0694}
{"Sequence": "GAACCACA", "E-score": -0.12}
{"Sequence": "ATTAAACG", "E-score": 0.0175}
{"Sequence": "CCAGCTCG", "E-score": -0.0923}
{"data": "Study 3", "target": "RNA binding protein fox-1 homolog 2, RRM domain, GST-SBP tag (RBFOX2, Homo sapiens, UniProt O43251-10, residues 100-194)", "method": "RNA Bind-n-Seq", "molecule type": "RNA", "matrix": "in vitro", "tested at": "365 nM", "setting": "natural RNA segment, single round, ends assumed", "reference": "no-protein control", "reading": "higher = stronger binding", "shared flanks, not repeated": "GGGAGUUCUACAGUCCGACGAUC … UGGAAUUCUCGGGUGCCAA", "Target sequence (chain)": "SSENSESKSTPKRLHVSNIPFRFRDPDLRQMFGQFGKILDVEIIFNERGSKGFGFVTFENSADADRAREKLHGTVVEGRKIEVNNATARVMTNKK"}
{"Sequence": "CAGAGGGUUCUGUUUUUCCCAUUCCCUUCUGGACUUUAAAUAAAUAUUUAAAACUGAGCAAUGGAAAGACGAGUCUGUGGUUUGAUGCUUCUUCACGGUGCUCAAAGGCA", "RBNS enrichment (R)": 0.511}
{"Sequence": "UCAGUUGCUUUUGUCGAACAUCAGCAUCAUGUUUUAAAUGUUGUGGUCCUGGAUGCCCAGCUGGGCUACCCAGGUGCCAGCAUGUUUGCAUGGGAGGAAAGGCUCCACUU", "RBNS enrichment (R)": 1.79}
{"Sequence": "GCACAUUUUCUUUUGUGCUUUUAAAUGUUUCUUAAGUUGGAACAGGUUUCCUCGGGCCUGUUUUGACUGAUUGCUGGAGUGCAUUUGAUAGUUAAAAAUUACUAAUUGGU", "RBNS enrichment (R)": 2.61}
{"Sequence": "UAGCUUGACACUGUACUAGCUUCCUGAAUUGUUUGAAAAUACUACUUAAAUAUAAGACAACAGGAAAUUUAUAUAGGAAACAUUUUCAUUCCACUUGUAUAAUUUAAGUC", "RBNS enrichment (R)": 1.14}
{"Sequence": "AUAUUUUGGAGUCUUGAGAUUGUUUUUCUCUUUUCUUAUUAAAUAAUCUUUCUAUAAACCAGCACUACAGAGUUUGCUGUGUAUGUUUUCUCCAGGUUAUAAUGUAGGCA", "RBNS enrichment (R)": 0.651}
{"Sequence": "CUCGACUUAGGAUGGACAGACACAGAGGGGUGCCUUCUAUGGUGCCAGCCUGUCAUGCCCAGUCCCUCCCACCAGUGCCCUGGGCCUGUCCUGGGUCCCCUGACACAUUU", "RBNS enrichment (R)": 0.157}
{"Sequence": "UGGGCCACGCCUGGGAGGGGCCCAGCUGGGGUUACUGGCCCCGCAUGAGCCUCGGCCAUCUCUCCCUCCUGCCCUCUGCUUGGGGGACUCAGGGCUCCAUUCUGGAGGGC", "RBNS enrichment (R)": 1.04}
{"Sequence": "AAAGAAGAAACCACCCUGAUCCCCCAUUUCCUACAGUUGAGCAUGGACUCCCUAGUGCCCAUGCUGAGAUCUCAGCAUGUUCUAGAUGGGUCCUCUAGAGCACGGGUUUG", "RBNS enrichment (R)": 0.409}
{"data": "Study 4", "target": "Sal-like protein 4, full length isoform A (SALL4, Homo sapiens, UniProt Q9UJQ4, residues 1-1053)", "method": "universal PBM", "molecule type": "double-stranded DNA, one strand shown", "matrix": "in vitro", "tested at": "600 nM", "setting": "8-mer, flanks averaged, mean of replicates", "reading": "higher = stronger binding", "UniProt Q9UJQ4, sequence (whole entry, looked up)": "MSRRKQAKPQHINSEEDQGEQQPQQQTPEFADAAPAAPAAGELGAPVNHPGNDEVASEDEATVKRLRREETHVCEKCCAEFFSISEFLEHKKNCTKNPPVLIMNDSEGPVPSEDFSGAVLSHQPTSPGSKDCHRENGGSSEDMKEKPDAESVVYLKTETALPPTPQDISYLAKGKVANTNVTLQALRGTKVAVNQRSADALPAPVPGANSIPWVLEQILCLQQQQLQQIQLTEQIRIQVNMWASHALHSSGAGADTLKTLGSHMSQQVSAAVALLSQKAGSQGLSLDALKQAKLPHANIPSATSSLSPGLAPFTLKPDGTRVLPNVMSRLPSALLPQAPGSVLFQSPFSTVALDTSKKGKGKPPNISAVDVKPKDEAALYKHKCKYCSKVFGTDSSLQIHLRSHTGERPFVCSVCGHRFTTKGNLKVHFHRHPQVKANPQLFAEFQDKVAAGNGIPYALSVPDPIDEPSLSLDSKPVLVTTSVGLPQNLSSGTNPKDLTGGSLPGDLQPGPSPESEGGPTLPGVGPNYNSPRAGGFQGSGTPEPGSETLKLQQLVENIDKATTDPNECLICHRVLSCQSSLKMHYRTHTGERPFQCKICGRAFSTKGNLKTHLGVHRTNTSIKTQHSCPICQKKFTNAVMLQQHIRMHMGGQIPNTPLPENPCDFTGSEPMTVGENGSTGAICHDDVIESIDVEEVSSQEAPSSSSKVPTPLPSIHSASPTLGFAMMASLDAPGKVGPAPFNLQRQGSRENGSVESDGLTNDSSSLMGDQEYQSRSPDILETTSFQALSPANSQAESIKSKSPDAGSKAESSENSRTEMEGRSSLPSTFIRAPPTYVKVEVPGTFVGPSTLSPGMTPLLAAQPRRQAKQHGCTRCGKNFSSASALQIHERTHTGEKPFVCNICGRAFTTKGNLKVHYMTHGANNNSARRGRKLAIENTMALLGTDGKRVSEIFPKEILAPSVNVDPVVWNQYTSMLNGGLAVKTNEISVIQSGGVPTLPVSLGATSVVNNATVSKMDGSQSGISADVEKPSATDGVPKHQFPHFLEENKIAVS"}
{"Sequence": "CTGGAGTC", "E-score": -0.239}
{"Sequence": "ATTACTAA", "E-score": 0.334}
{"Sequence": "TCCGAAGA", "E-score": -0.0226}
{"Sequence": "CTAGCCAG", "E-score": -0.225}
{"Sequence": "CGAGCACG", "E-score": -0.299}
{"Sequence": "ACCCCGCG", "E-score": -0.226}
{"Sequence": "CCAGTGGA", "E-score": -0.369}
{"Sequence": "AACTCTGG", "E-score": -0.0982}
{"Sequence": "GAAAAAAC", "E-score": 0.22}
{"Sequence": "ACAAGTAT", "E-score": 0.286}
{"Sequence": "ATACGTGA", "E-score": 0.162}
{"Sequence": "CCACATAA", "E-score": 0.202}
{"Sequence": "ACGGAAAA", "E-score": 0.163}
{"Sequence": "GGCGGTTA", "E-score": -0.178}
{"Sequence": "ATGAAAGA", "E-score": 0.174}
{"Sequence": "GGGGGCGA", "E-score": -0.291}
{"Sequence": "ATTAGTGA", "E-score": 0.281}
{"Sequence": "ACGGATTG", "E-score": -0.142}
{"Sequence": "AGGGTTGG", "E-score": -0.109}
{"Sequence": "GTACTGAA", "E-score": 0.188}
{"Sequence": "ACCCAAGA", "E-score": -0.0283}
{"Sequence": "GGCTAAAC", "E-score": -0.128}
{"note": "For quick reference, copied from above (study 1):"}
{"Sequence": "AGGAAGGC", "E-score": 0.342}
{"Sequence": "CGGAACTA", "E-score": 0.401}
{"Sequence": "GAGGCGGA", "E-score": 0.333}
{"Sequence": "CGGACGAC", "E-score": 0.31}
{"Sequence": "CGATTTCC", "E-score": 0.405}
{"Sequence": "GGAACTGA", "E-score": 0.339}
{"Sequence": "ATTTCCTA", "E-score": 0.411}
